Measured values collected from several papers.
± gives the spread as reported.

Substance = COc1cccc2c1C(=O)c1c(O)c3c(c(O)c1C2=O)C[C@@](O)(C(=O)CO)C[C@@H]3O[C@H]1C[C@H](NC(=O)[C@@H]2CCCN2C(=O)CN)[C@H](O)[C@H](C)O1; system = mouse, E0771 tumour-bearing, tumor; setting = intravenous, 92 µmol/kg PhAc-ALGP-Dox; measurement = Tmax; value = 15 min
Substance = ksi Y16F/D40N/D103N (Pseudomonas putida); test = UV-vis, refers to: Tyr57; setting = 25 °C; measurement = pKa; value = > 10
Substance = PRL (Homo sapiens, UniProt P01236); test = NMR, refers to: His180; setting = 35 °C, 25 mM NaCl, microscopic; neighbours unprotonated, numbering of the source; measurement = pKa; value = 5.96
Substance = proteorhodopsin, retinal (uncultured gamma-proteobacterium EBAC31A08, UniProt Q9F7P4); test = UV-vis, refers to: Asp97; setting = NaCl 100 mM, detergent-solubilised; measurement = pKa; value = 6.8
Substance = Cc1cc(-c2ccc(NC(=O)[C@H](CCCCNC(=O)CCN3C(=O)CC(SCC(=O)N[C@H](Cc4ccccc4)C(=O)N[C@H]4CSSC[C@@H](C(=O)N[C@H](C(=O)O)[C@@H](C)O)NC(=O)[C@H]([C@@H](C)O)NC(=O)[C@H](CCCCN)NC(=O)[C@@H](Cc5c[nH]c6ccccc56)NC(=O)[C@H](Cc5ccc(O)cc5)NC4=O)C3=O)NC(=O)CN3CCN(CC(=O)O)CCN(CC(=O)O)CCN(CC(=O)O)CC3)c(C)c2)ccc1N=Nc1ccc2c(S(=O)(=O)O)cc(S(=O)(=O)O)c(N)c2c1O (stereo partly shown) [yttrium-86 labelled]; test = PET; system = female athymic nude mice, AR-42J xenograft, AR-42J tumour; setting = intravenous, 0.92 MBq, 4 nmol, 48 h; measurement = tumour uptake; value = 65.8 ± 7.59 %ID/g
Substance = COc1cccc2c1C(=O)c1c(O)c3c(c(O)c1C2=O)C[C@@](O)(C(=O)CO)C[C@@H]3O[C@H]1C[C@H](NC(=O)[C@@H]2CCCN2C(=O)CNC(=O)[C@@H](N)CC(C)C)[C@H](O)[C@H](C)O1; system = mouse, E0771 tumour-bearing, kidney; setting = intravenous, 92 µmol/kg PhAc-ALGP-Dox; measurement = Tmax; value = 5 min
Substance = N=C(N)NCCC[C@@H]1NC(=O)[C@H](CSC2CC(=O)N(CCNC(=O)CN3CCN(CC(=O)O)CCN(CC(=O)O)CCN(CC(=O)O)CC3)C2=O)NC(=O)[C@H](CCCCN)NC(=O)[C@@H](Cc2ccc(O)cc2)NC(=O)[C@H](CC(=O)O)NC(=O)CNC1=O (stereo partly shown) [gallium-68 labelled]; system = ICR mouse, female, blood; setting = intravenous, 5 MBq, 1 to 120 min, two-compartment model; measurement = elimination half-life; value = 30.8 ± 8.59 min
Substance = insulin aspart; test = ELISA, refers to: plasma insulin; system = human, plasma; setting = subcutaneous, 0.2 U/kg; how to read = relative to: baseline; measurement = ΔCmax; value = 81 ± 8 µU/mL
Substance = pegcetacoplan; test = population PK model; system = human, GA or nAMD, serum; setting = intravitreal; measurement = absorption rate constant; value = -2.94 log(1/day)
Substance = teriparatide; test = ELISA; system = healthy women; setting = sc, 20 µg single dose, reference product, arithmetic mean; measurement = CL/F; value = 207 ± 83.2 L/h
Substance = Insulin human; system = rat, dorsal cortex; setting = intranasal, 20 µg per nostril, 360 min; measurement = brain concentration; value = 0 pg/mg tissue
Substance = CRYGD (Homo sapiens, UniProt P07320); test = NMR, refers to: His83; setting = 25 °C, numbering of the source; measurement = pKa; value = 6.07
Substance = insulin aspart; test = LC-MS/MS; system = healthy humans, plasma; setting = subcutaneous, 0.2 IU/kg, 0 to 8 h, after propensity score matching; measurement = AUC; value = 571 ± 85 ng·h/mL
Substance = ACEEQNPWARYLEWLFPTETLLLEL; test = ex vivo fluorescence; system = peptide, BALB/c mouse, 4T1 mammary tumour, tumour vs muscle; setting = 2 h; how to read = relative to: tumour over muscle; measurement = contrast index; value = 3
Substance = CC(C)[C@H](NC(=O)[C@@H]1CCCN1C(=O)[C@H](CCCNC(=N)N)NC(=O)[C@H](CS)NC(=O)[C@H](Cc1c[nH]c2ccccc12)NC(=O)[C@H](CCCNC(=N)N)NC(=O)[C@@H](Cc1ccccc1)NC(=O)[C@H](Cc1c[nH]cn1)NC(=O)[C@H](CCC(=O)O)NC(=O)[C@H](CS)NC(=O)[C@H](CS)NC(=O)[C@H](CCCCN)NC(=O)[C@@H]1CC(=O)N[C@@H](CCCNC(=N)N)C(=O)N[C@@H](C)C(=O)N[C@@H](CC(=O)O)C(=O)N[C@H](Cc2ccc(O)cc2)C(=O)N1)C(N)=O [technetium-99m labelled]; system = C57 mice, pancreas; setting = intravenous, 0.037 MBq, 24 h; measurement = tissue uptake; value = 0.02 ± 0.07 %ID/g
Substance = ksi D40A (Pseudomonas putida); test = UV-vis, refers to: Tyr57; setting = 25 °C; measurement = pKa; value = 7.1

Excerpt of the above:
Substance = PRL (Homo sapiens, UniProt P01236); test = NMR, refers to: His180; setting = 35 °C, 25 mM NaCl, microscopic; neighbours unprotonated, numbering of the source; measurement = pKa; value = 5.96
